Assay results from different studies.
Compare with care: the assays were run in different laboratories.
Organism: Candida albicans

SMILES | assay | test system | setting | how to read | MIC
CC[C@@H](CC(=O)N[C@@H](CCCNC(=N)N)CC(=O)N[C@H]1CCCC[C@@H]1C(=O)N[C@@H](CC)CC(=O)N[C@@H](CCCNC(=N)N)CC(=O)N[C@H]1CCCC[C@@H]1C(=O)N[C@@H](CC)CC(=O)N[C@@H](CCCNC(=N)N)CC(N)=O)NC(=O)[C@H]1CCCC[C@@H]1NC(=O)C[C@@H](N)Cc1ccc(O)cc1 | broth microdilution | SC5314 | 48 h, pH 7.2, 35 °C |  | 16 µg/mL
Cc1ccc(C2OC(c3ccc(C)cc3)C(C)C(=NOCc3cn(-c4ccccc4)nn3)C2C)cc1 (centres unmarked) | microbial growth |  |  |  | 25 µg/mL
CC[C@H](C)[C@H](NC(=O)[C@H](CC(=O)O)NC(=O)[C@H](Cc1ccccc1)NC(=O)[C@H](CC(C)C)NC(=O)CN)C(=O)N[C@H](C(=O)N[C@@H](CCCCN)C(=O)N[C@@H](CCCCN)C(=O)N[C@H](C(=O)N[C@@H](CC(C)C)C(=O)N[C@@H](CCCCN)C(=O)N[C@@H](CC(C)C)C(=O)N[C@@H](CC(C)C)C(=O)N[C@@H](CCCCN)C(N)=O)C(C)C)C(C)C | broth microdilution OD530 | ATCC 90028, yeast nitrogen base | 24 h, 35 °C |  | > 20 µM
CC[C@H](C)[C@H](NC(=O)[C@H](CC(C)C)NC(=O)[C@H](CCC(N)=O)NC(=O)[C@H](CO)NC(=O)[C@H](CCCNC(=N)N)NC(=O)[C@@H](N)CO)C(=O)N[C@H](C(=O)N[C@@H](Cc1c[nH]cn1)C(=O)N[C@@H](CCC(N)=O)C(=O)N[C@@H](CCCNC(=N)N)C(=O)N[C@@H](CC(C)C)C(=O)N[C@@H](Cc1ccccc1)C(N)=O)C(C)C | broth microdilution | RPMI MOPS-buffered |  |  | > 400 µg/mL
CC[C@H](C)[C@H](NC(=O)[C@H](CCC(N)=O)NC(=O)[C@@H]1CCCN1C(=O)[C@@H](NC(=O)[C@@H](NC(=O)[C@H](Cc1ccccc1)NC(=O)[C@H](C)NC(=O)[C@H](C)NC(=O)[C@H](CC(C)C)NC(=O)[C@H](CCCNC(=N)N)NC(=O)[C@H](C)NC(=O)[C@H](CC(C)C)NC(=O)[C@H](CC(C)C)NC(=O)CNC(=O)[C@@H](NC(=O)[C@@H](N)Cc1ccccc1)C(C)C)C(C)C)[C@@H](C)CC)C(=O)N[C@H](C(=O)N[C@@H](CCCCN)C(=O)N[C@@H](CCCNC(=N)N)C(=O)N[C@@H](Cc1ccccc1)C(=O)N[C@@H](CCC(N)=O)C(=O)N[C@@H](CCCCN)C(=O)N[C@@H](CCCCN)C(=O)N[C@@H](CC(N)=O)C(N)=O)C(C)C | ATP luminescence | FH2173 | 48 h |  | 6.25 to 12.5 µM
CC[C@@H](CC(=O)N[C@@H](CCCNC(=N)N)CC(=O)N[C@H](CC(=O)N[C@@H](CC)CC(=O)N[C@@H](CCCNC(=N)N)CC(=O)N[C@H](CC(=O)N[C@@H](CC)CC(=O)N[C@@H](CCCNC(=N)N)CC(N)=O)[C@@H](C)CC)[C@@H](C)CC)NC(=O)C[C@@H](N)[C@@H](C)CC | broth microdilution | SC5314 | 48 h, pH 7.2, 35 °C |  | 128 µg/mL
CC[C@H](C)[C@@H]1NC(=O)[C@H](CC(C)C)NC(=O)[C@@H](NC(=O)[C@H](CO)NC(=O)[C@H](CCCNC(=N)N)NC(=O)[C@@H](N)CO)CSSC[C@@H](C(=O)N[C@@H](CCC(N)=O)C(=O)N[C@@H](CCCNC(=N)N)C(=O)N[C@@H](CC(C)C)C(=O)N[C@@H](Cc2ccccc2)C(N)=O)NC(=O)[C@H](C(C)C)NC1=O | broth microdilution | ATCC 24433 |  |  | 5 µg/mL
COc1cc2c(=O)c(C(=O)NCCNCCO)cn(Cc3ccccc3)c2cc1OCc1cccc(Br)c1 |  | ATCC 90028 |  | ≥80% growth inhibition | < 0.25 µg/mL
O.O=[N+]([O-])[O-].O=c1cc[nH]c(=S)[nH]1.[Ag+].c1ccc(P(c2ccccc2)c2ccccc2)cc1.c1ccc(P(c2ccccc2)c2ccccc2)cc1 | agar dilution | MTCC 227, Mueller Hinton agar | 24 h, 25 °C |  | 10 µg/mL
CCCCCCCCCCCCCCC(=O)O.O=C1CCCC2C3CCCN4CCCC(CN12)C34 (centres unmarked) | broth dilution | ATCC 10231 |  |  | inactive
CC(C)C[C@H](NC(=O)[C@H](CCCNC(=N)N)NC(=O)[C@H](CCC(N)=O)NC(=O)[C@H](Cc1c[nH]cn1)NC(=O)[C@@H](NC(=O)[C@H](CCCNC(=N)N)NC(=O)[C@H](CC(C)C)NC(=O)[C@H](CCC(=O)O)NC(=O)[C@H](CO)NC(=O)[C@H](CCCNC(=N)N)NC(=O)[C@@H](N)CO)C(C)C)C(=O)N[C@@H](Cc1ccccc1)C(N)=O | broth microdilution | RPMI MOPS-buffered |  |  | > 400 µg/mL
CC[C@H](C)[C@@H]1NC(=O)CNC(=O)[C@H](CCCCN)NC(=O)[C@H](C)NC(=O)[C@H](CCC(=O)O)NC(=O)[C@H](Cc2ccccc2)NC(=O)[C@H](CO)NC(=O)[C@H](CC(C)C)NC(=O)[C@H](C(C)C)NC(=O)[C@H](CC(=O)O)NC(=O)[C@@H](NC(=O)[C@@H](NC(=O)[C@@H](N)C(C)C)[C@@H](C)O)CSSC[C@@H]2NC(=O)[C@H](CO)NC(=O)CNC(=O)CNC(=O)[C@H](CCCCN)NC(=O)[C@H](CCCCN)NC(=O)[C@H](CCCNC(=N)N)NC(=O)[C@H](CC(C)C)NC(=O)[C@H](C)NC(=O)[C@H]([C@@H](C)CC)NC(=O)[C@H](CSSC[C@@H](C(=O)N[C@@H](CCCNC(=N)N)C(=O)N[C@@H](CC(N)=O)C(=O)O)NC(=O)[C@H](C(C)C)NC(=O)[C@H](C)NC(=O)[C@H](C(C)C)NC(=O)CNC(=O)[C@H](CC(N)=O)NC(=O)[C@H](CCC(N)=O)NC2=O)NC(=O)[C@H](Cc2c[nH]cn2)NC(=O)[C@H](CC(C)C)NC(=O)[C@H](C)NC(=O)[C@H](C)NC(=O)[C@H](C)NC(=O)[C@H](CO)NC(=O)[C@H](Cc2c[nH]cn2)NC(=O)[C@H](CC(N)=O)NC(=O)[C@H](C(C)C)NC(=O)[C@H](C)NC1=O | broth microdilution | ATCC 90028 | 28 °C |  | 12.5 µM
CC[C@H](C)[C@@H]1NC(=O)[C@H](CC(C)C)NC(=O)[C@@H](NC(=O)[C@H](CO)NC(=O)[C@H](CCCNC(=N)N)NC(=O)[C@@H](N)CO)CCSSCC[C@@H](C(=O)N[C@@H](CCC(N)=O)C(=O)N[C@@H](CCCNC(=N)N)C(=O)N[C@@H](CC(C)C)C(=O)N[C@@H](Cc2ccccc2)C(N)=O)NC(=O)[C@H](C(C)C)NC1=O | broth microdilution | ATCC 24433 |  |  | 10 µg/mL
CC[C@H](C)[C@@H]1NC(=O)CNC(=O)[C@H](CCCCN)NC(=O)[C@H](C)NC(=O)[C@H](CCC(=O)O)NC(=O)[C@H](Cc2ccccc2)NC(=O)[C@H](CO)NC(=O)[C@H](CC(C)C)NC(=O)[C@H](C(C)C)NC(=O)[C@H](CC(=O)O)NC(=O)[C@@H](NC(=O)[C@@H](NC(=O)[C@@H](N)C(C)C)[C@@H](C)O)CSSC[C@@H]2NC(=O)[C@H](CO)NC(=O)CNC(=O)CNC(=O)[C@H](CCCCN)NC(=O)[C@H](CCCCN)NC(=O)[C@H](CCCNC(=N)N)NC(=O)[C@H](CC(C)C)NC(=O)[C@H](C)NC(=O)[C@H]([C@@H](C)CC)NC(=O)[C@@H]3CSSC[C@@H](C(=O)N[C@@H](CCCNC(=N)N)C(=O)N[C@@H](CC(N)=O)C(=O)O)NC(=O)[C@H](C(C)C)NC(=O)[C@H](CSSC[C@H](NC(=O)[C@H](C)NC(=O)[C@H](CO)NC(=O)[C@H](Cc4c[nH]cn4)NC(=O)[C@H](CC(N)=O)NC(=O)[C@H](C(C)C)NC(=O)[C@H](C)NC1=O)C(=O)N[C@@H](C)C(=O)N[C@@H](CC(C)C)C(=O)N[C@@H](Cc1c[nH]cn1)C(=O)N3)NC(=O)[C@H](C(C)C)NC(=O)CNC(=O)[C@H](CC(N)=O)NC(=O)[C@H](CCC(N)=O)NC2=O | broth microdilution | ATCC 90028 | 28 °C |  | 10 µM

Excerpt of the above:
SMILES | assay | test system | setting | how to read | MIC
CC[C@@H](CC(=O)N[C@@H](CCCNC(=N)N)CC(=O)N[C@H]1CCCC[C@@H]1C(=O)N[C@@H](CC)CC(=O)N[C@@H](CCCNC(=N)N)CC(=O)N[C@H]1CCCC[C@@H]1C(=O)N[C@@H](CC)CC(=O)N[C@@H](CCCNC(=N)N)CC(N)=O)NC(=O)[C@H]1CCCC[C@@H]1NC(=O)C[C@@H](N)Cc1ccc(O)cc1 | broth microdilution | SC5314 | 48 h, pH 7.2, 35 °C |  | 16 µg/mL
